Published values from different studies.
A part holds a random share of what one study measured.
Sequence of UniProt Q15349 (whole entry, looked up): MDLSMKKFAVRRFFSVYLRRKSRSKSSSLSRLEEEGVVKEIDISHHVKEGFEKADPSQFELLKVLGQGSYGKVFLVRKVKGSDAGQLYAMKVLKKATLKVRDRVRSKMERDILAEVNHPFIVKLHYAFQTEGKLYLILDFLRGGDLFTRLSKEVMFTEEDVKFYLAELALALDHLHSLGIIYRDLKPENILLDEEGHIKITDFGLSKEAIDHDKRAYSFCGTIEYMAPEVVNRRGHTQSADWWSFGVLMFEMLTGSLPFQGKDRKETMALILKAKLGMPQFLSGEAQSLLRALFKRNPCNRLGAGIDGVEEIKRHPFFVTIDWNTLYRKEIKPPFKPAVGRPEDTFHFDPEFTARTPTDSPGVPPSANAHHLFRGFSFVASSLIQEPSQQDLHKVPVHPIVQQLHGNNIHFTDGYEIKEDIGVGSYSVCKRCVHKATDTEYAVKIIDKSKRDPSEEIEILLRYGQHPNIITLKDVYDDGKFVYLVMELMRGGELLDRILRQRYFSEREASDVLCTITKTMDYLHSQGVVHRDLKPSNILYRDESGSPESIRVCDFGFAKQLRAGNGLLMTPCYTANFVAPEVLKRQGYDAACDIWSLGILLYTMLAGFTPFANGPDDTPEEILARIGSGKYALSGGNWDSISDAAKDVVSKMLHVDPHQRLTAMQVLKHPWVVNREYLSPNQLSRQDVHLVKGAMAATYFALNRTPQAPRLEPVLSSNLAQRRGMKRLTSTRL
Sequence of UniProt O15111 (whole entry, looked up): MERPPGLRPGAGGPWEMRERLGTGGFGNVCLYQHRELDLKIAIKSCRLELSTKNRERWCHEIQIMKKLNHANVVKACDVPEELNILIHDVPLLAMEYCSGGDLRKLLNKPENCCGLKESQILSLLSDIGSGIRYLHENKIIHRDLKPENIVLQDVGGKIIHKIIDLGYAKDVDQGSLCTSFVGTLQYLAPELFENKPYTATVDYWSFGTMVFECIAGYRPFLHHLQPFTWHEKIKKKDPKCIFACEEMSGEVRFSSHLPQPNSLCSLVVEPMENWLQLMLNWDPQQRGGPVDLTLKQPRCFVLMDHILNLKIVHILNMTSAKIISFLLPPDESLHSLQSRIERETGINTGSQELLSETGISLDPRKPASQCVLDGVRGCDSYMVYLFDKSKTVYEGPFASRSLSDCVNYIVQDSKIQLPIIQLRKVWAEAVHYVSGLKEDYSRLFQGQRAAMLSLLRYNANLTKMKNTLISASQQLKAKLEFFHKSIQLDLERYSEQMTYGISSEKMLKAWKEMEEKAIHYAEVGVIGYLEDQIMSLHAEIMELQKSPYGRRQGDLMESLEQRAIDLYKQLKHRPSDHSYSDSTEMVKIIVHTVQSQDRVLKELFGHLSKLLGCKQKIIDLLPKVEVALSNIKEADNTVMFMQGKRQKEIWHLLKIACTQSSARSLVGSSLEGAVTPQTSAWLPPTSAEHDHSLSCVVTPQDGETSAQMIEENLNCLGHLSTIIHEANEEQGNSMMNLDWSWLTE
Sequence of UniProt Q9UK32 (whole entry, looked up): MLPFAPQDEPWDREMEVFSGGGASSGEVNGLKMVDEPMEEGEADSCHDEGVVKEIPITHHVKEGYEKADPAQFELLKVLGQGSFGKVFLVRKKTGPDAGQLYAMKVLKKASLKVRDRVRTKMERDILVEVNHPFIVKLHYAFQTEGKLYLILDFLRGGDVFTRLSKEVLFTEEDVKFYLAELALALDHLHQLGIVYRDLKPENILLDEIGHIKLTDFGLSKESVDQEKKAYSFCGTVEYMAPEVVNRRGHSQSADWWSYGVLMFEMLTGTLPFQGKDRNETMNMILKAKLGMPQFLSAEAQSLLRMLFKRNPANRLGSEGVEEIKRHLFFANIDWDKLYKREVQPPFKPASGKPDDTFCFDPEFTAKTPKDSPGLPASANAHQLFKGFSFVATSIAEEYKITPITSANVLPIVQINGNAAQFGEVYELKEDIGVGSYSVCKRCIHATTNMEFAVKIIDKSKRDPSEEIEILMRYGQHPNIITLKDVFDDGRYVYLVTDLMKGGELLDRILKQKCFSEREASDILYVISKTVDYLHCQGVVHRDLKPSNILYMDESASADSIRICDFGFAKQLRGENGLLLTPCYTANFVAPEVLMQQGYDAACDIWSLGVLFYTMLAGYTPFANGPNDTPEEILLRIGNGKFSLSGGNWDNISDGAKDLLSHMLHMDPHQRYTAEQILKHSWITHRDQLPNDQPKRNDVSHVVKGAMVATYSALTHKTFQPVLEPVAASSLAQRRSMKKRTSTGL
Sequence of UniProt O75676 (whole entry, looked up): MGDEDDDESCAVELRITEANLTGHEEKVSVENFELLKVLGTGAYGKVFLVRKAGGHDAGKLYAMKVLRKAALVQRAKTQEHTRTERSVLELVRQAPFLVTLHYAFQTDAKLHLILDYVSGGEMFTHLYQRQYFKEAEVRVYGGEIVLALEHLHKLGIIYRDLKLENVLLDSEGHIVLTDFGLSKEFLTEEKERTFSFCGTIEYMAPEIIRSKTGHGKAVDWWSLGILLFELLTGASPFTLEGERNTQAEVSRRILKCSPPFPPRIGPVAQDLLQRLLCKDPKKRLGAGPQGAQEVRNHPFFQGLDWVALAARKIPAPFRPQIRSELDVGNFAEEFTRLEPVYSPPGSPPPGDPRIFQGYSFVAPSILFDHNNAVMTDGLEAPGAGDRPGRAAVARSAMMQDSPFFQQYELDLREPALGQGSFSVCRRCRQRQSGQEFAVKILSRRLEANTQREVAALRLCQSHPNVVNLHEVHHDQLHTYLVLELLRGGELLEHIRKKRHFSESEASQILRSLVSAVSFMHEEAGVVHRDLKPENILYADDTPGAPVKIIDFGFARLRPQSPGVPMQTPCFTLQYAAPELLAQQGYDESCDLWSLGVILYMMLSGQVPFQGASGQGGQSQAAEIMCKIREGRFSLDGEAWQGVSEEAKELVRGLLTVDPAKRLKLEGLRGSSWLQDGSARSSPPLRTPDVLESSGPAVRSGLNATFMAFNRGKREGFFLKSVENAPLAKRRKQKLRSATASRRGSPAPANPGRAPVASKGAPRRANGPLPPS
Sequence of UniProt Q86YV6 (whole entry, looked up): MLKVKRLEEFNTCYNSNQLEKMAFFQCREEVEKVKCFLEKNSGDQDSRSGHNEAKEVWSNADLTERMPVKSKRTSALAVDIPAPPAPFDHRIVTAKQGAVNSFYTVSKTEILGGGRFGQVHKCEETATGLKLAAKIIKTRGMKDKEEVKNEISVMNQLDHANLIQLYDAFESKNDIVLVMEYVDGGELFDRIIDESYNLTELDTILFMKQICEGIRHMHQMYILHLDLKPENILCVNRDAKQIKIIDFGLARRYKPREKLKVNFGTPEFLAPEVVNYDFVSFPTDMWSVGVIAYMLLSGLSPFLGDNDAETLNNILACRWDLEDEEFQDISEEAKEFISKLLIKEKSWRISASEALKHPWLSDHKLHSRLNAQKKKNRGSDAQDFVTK
Sequence of UniProt P29322 (whole entry, looked up): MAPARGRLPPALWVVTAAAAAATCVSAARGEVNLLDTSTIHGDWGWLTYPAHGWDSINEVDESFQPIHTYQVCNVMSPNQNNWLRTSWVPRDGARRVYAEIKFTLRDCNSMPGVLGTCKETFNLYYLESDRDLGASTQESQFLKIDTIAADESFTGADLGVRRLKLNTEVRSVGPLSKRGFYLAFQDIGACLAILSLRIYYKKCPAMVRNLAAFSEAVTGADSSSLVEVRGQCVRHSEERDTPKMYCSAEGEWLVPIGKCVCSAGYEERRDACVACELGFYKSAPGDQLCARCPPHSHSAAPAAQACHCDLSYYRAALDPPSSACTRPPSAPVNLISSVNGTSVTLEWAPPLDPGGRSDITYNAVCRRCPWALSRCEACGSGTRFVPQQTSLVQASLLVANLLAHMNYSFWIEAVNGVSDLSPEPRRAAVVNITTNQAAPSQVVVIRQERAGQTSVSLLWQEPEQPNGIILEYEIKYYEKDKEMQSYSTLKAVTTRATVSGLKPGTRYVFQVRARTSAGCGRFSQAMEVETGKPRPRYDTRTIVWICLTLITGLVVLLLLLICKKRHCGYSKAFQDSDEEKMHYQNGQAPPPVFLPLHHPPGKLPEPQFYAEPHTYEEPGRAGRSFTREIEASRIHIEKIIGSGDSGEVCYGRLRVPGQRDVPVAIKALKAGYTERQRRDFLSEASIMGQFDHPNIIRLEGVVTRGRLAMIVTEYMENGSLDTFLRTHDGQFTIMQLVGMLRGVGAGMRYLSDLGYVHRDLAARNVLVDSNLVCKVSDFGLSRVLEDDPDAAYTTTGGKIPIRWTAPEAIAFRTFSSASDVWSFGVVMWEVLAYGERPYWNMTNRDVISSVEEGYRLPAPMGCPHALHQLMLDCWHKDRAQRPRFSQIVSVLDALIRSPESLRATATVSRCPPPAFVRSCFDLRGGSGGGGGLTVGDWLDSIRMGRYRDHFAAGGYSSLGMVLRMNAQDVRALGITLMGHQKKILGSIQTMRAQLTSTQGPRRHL
Sequence of UniProt P36896 (whole entry, looked up): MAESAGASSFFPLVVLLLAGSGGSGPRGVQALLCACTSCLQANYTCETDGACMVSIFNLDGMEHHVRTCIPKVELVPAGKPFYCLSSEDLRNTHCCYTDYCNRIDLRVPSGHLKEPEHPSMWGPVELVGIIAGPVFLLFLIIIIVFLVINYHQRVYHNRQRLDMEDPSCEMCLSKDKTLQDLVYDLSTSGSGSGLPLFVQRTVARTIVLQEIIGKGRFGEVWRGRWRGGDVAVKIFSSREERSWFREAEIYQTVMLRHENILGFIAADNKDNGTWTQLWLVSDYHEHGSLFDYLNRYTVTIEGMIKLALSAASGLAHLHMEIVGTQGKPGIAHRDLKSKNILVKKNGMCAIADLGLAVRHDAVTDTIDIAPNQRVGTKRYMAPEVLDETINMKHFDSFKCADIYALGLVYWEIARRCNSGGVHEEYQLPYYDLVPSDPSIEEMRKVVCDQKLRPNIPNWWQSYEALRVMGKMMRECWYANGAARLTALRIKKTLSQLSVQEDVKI

Set 1
Host: mouse
Sample: microsomes or S9
Tested at: 2 µM
Time: 0.5 h
For COCCn1c(C)cc(C)c(C(=O)Nc2nc(COC)n[nH]2)c1=O, the remaining compound was over 99%.
The remaining compound of Cc1noc(C)c1Cc1c(C(=O)N2CCC(C3CCNC3)CC2)noc1C (stereo not drawn) is reported as 96.3%.
CC(C)n1c(=O)ccc2cnc(Nc3ccc(N4CCN(C)CC4)cc3)nc21 has a remaining compound of 42.1%.
Cc1cccc(CNC(=O)c2c(OCC(C)C)cc(=O)n3c2CCCCC3)c1 has a remaining compound of 2.42%.
Cc1ccc2[nH]cc(CCNC(=O)Nc3ccc(Cl)c(Cl)c3)c2c1 has a remaining compound of 25.3%.
With CN(Cc1ccccc1N1CCCCC1)S(=O)(=O)c1cn(C)c(=O)n(C)c1=O the remaining compound was 3.52%.

Set 2
SMILES: CC(C)n1cnc(-c2ccc(F)cc2)c1-c1ncc(C(=O)Nc2ccc(N3CCN(C)CC3)cc2)[nH]1
phase 2a trial; idiopathic pulmonary fibrosis patients; 60 mg once daily, grade 3 emergent event — “patients with proteinuria”: 0%.
It gave 0% for “patients with proteinuria” (phase 2a trial; idiopathic pulmonary fibrosis patients; 60 mg once daily, grade 4 emergent event).
human, idiopathic pulmonary fibrosis; 60 mg once daily, trial, treatment-emergent — “patients with proteinuria”: 0%.
It gave 0% for “patients with proteinuria” (phase 2a trial; idiopathic pulmonary fibrosis patients; 30 mg once daily, grade 2 emergent event).
For phase 2a trial; idiopathic pulmonary fibrosis patients; 60 mg once daily, grade 2 emergent event: “patients with proteinuria” read 0%.

Set 3
SMILES: O=C1NC(c2ccccn2)Sc2ccccc21 (stereo not drawn)
Effect on: cell-free assay
Method: competition with immobilised ligand
Tested at: 1 µM
ERN1 (Homo sapiens, UniProt O75460) — remaining binding: 100%.
The remaining binding was 100% (Ribosomal protein S6 kinase alpha-4, N-terminal kinase domain (RPS6KA4, Homo sapiens, UniProt O75676)).
For EPHA8 (Homo sapiens, UniProt P29322): remaining binding read 63%.
It gave 99% for remaining binding (ACVR1B (Homo sapiens, UniProt P36896)).
PLK1 (Homo sapiens, UniProt P53350) — remaining binding: 100%.
The remaining binding was 100% (STK10 (Homo sapiens, UniProt O94804)).
MYLK4 (Homo sapiens, UniProt Q86YV6) — remaining binding: 90%.
CHUK (Homo sapiens, UniProt O15111) — remaining binding: 100%.
For GSK3B (Homo sapiens, UniProt P49841): remaining binding read 65%.
CSNK2A2 (Homo sapiens, UniProt P19784) — remaining binding: 100%.
For Ribosomal protein S6 kinase alpha-2, N-terminal kinase domain (RPS6KA2, Homo sapiens, UniProt Q15349): remaining binding read 97%.
Ribosomal protein S6 kinase alpha-6, C-terminal kinase domain (RPS6KA6, Homo sapiens, UniProt Q9UK32) — remaining binding: 81%.
It gave 91% for remaining binding (TTK (Homo sapiens, UniProt P33981)).

Set 4
Cell line: mouse MPNST tumor cells
Method: high-content nuclear imaging
Item: cell number
Tested at: 10 µM
Time: 12 h
Notes: mean of 2 replicates
Baseline: plate mean
Direction: higher = more cells
OCCOCCN1CCN(C(c2ccccc2)c2ccc(Cl)cc2)CC1 (stereo not drawn) has a nuclei count of 1.04 z-score.
The nuclei count of COc1ccc(S(=O)(=O)N2c3ccc(Cl)cc3[C@](O)(c3ccccc3Cl)[C@@H]2C(=O)N2CCC[C@H]2C(N)=O)cc1OC is reported as 1.11 z-score.
Cc1ccc([N+](=O)[O-])cc1S(=O)(=O)n1c(C)nc2ccccc21 gave a nuclei count of 0.248 z-score.

A few entries again (set 3):
The remaining binding was 100% (STK10 (Homo sapiens, UniProt O94804)).
CHUK (Homo sapiens, UniProt O15111) — remaining binding: 100%.
ERN1 (Homo sapiens, UniProt O75460) — remaining binding: 100%.
It gave 99% for remaining binding (ACVR1B (Homo sapiens, UniProt P36896)).
